# Results from different studies.
# A part holds a random share of what one study measured. Positions count from the first letter of the parent shown.

# Block 1
# Target: UDP-N-acetylglucosamine--peptide N-acetylglucosaminyltransferase 110 kDa subunit (OGT, Homo sapiens, UniProt O15294)
# UniProt O15294, sequence (whole entry, looked up): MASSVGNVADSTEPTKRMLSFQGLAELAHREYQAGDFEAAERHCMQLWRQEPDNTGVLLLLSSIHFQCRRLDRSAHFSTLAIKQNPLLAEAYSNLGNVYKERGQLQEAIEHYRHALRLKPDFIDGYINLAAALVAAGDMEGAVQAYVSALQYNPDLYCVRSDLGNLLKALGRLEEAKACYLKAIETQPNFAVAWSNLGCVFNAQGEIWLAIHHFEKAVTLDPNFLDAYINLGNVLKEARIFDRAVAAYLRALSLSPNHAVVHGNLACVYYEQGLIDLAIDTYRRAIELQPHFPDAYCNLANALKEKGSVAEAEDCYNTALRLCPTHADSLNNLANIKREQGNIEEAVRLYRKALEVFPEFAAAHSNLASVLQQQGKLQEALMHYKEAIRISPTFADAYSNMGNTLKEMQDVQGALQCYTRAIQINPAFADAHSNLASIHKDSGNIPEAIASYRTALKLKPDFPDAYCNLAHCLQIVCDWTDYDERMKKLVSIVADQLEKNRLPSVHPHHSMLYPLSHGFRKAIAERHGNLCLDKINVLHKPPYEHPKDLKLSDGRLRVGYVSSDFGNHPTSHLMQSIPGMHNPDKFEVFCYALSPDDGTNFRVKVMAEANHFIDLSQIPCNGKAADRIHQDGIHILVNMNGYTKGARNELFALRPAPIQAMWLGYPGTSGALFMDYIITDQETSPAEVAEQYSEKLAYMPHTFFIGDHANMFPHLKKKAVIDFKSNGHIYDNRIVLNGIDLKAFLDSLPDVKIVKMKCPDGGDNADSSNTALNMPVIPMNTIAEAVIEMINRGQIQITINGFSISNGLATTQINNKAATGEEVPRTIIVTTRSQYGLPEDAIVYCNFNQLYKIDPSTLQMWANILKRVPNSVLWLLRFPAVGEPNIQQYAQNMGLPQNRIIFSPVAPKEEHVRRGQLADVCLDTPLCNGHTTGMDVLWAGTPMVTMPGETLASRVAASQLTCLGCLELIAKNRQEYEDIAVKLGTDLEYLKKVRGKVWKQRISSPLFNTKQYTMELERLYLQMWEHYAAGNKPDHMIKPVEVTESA
# Observed: binding
# Method: phage display NGS
# Form: peptide
# Tested at: concentration not given
# Baseline: input library
Molecule,enrichment fold change
QPHHQHYFGVNHTQR,9.15
HFQEHTSHWHVYSTV,5.55
HHPAHRTPMFATTF,2.04
HVYHKNHADTHAVAH,8.65

# Block 2
# Variant: D75G
# Target: ABI1, truncated, D143A, DHFR fusion (Arabidopsis thaliana)
# Method: DHFR PCA, deep sequencing
# Sample: yeast
# Notes: methotrexate growth selection, single substitutions
# Baseline: wild-type fitted maximum
# Direction: higher = stronger binding
# Starting sequence: PYL1, truncated, DHFR fusion (Arabidopsis thaliana); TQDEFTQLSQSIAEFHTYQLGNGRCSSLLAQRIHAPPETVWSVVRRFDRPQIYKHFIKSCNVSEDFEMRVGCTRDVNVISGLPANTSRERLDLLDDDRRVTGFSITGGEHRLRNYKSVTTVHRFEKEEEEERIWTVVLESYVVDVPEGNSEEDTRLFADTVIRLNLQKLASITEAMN; partner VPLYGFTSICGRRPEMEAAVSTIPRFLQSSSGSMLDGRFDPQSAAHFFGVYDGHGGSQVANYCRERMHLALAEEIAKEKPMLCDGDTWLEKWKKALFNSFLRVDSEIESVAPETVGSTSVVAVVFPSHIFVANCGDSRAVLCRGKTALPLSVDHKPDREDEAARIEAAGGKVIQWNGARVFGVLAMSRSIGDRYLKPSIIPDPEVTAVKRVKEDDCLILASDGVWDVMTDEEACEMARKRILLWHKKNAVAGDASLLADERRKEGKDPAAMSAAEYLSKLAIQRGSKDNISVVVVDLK
with,relative binding score [%]
(+)-ABA 200 µM,85.3
(+)-ABA 0.39 µM,-6.73
(+)-ABA 2500 µM,93.7
(+)-ABA 4.8 µM,17.4
(+)-ABA 0 µM,-0.00823
(+)-ABA 0.0091 µM,-2.36

# Block 3
# Target: Interferon regulatory factor 3, full length, phosphomimetic (IRF3, Homo sapiens, UniProt Q14653, residues 1-427, S386D/S396D/S398D/S402D/T404D/S405D)
# Method: protein-binding microarray
# Form: double-stranded DNA, one strand shown
# Sample: in vitro
# Tested at: 2540 nM top
# Notes: 60-bp whole probe
# With: salmon DNA 0.4 mg/ml
# Baseline: random background probes
# Direction: higher = stronger binding
# All sequences stand within: GCCTAGCAC … GTCTTGATTCGCTTGACGCTGCTG
# Target sequence (chain): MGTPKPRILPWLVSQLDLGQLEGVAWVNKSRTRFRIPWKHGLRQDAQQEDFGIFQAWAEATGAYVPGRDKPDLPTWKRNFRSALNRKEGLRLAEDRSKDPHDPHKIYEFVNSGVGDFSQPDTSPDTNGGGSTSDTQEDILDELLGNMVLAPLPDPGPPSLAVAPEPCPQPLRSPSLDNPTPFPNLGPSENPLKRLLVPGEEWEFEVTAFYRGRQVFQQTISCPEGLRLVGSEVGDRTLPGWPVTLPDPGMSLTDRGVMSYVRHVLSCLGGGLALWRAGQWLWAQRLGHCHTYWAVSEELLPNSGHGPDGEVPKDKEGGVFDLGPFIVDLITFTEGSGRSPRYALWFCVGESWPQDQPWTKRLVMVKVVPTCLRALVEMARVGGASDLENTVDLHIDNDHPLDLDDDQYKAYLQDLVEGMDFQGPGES
Sequence,fitted relative affinity
GGCTGTTTGGTCCTGATCCTGTGCTAG,-0.0283 z-score
GACGGTATCGGGACTGGGTACGTGCTA,1.82 z-score
TCAAGAATGTTTTTCATACTGTGCTAG,0.156 z-score
GACGGTCTCGTTTTCCTGACGTGCTAG,2.38 z-score
GACGGACTGCTTTTCCTGATGTGCTAG,-0.184 z-score
TTAGGTTTCGACACAGGGTTAGTGCTA,2.09 z-score
TTAGATTTCAGACTGGCTTAGTGCTAG,0.414 z-score
TTAGGTATCGACACTGAGTTAGTGCTA,0.23 z-score

# Block 4
# Target: TAR DNA-binding protein 43, full length, His tag (TARDBP, Homo sapiens, UniProt Q13148, residues 1-414)
# Method: RNA Bind-n-Seq
# Form: RNA
# Sample: in vitro
# Tested at: 20 nM
# Notes: 6-mer, flanks averaged, single round
# With: 150 mM KCl
# Baseline: input library
# Direction: higher = stronger binding
Sequence,6-mer enrichment (R)
GAUUCA,0.609
UUGACG,0.797
AGAAUC,0.626
ACGAUU,0.577
ACAUCC,0.609
GAUGGU,1.29
GAAAGU,0.85
ACCGGG,2

# Block 5
# Target: inorganic phosphate, free oxyanion
# Method: microfluidic competitive inhibition
# Sample: in vitro, cell-free expressed
# Tested at: not given
# Notes: derived from inhibition constants, unchanged parent 615000 nM
# Direction: lower = stronger binding
# Starting sequence: PafA, mature enzyme, eGFP fusion (Elizabethkingia meningoseptica, UniProt Q9KJX5); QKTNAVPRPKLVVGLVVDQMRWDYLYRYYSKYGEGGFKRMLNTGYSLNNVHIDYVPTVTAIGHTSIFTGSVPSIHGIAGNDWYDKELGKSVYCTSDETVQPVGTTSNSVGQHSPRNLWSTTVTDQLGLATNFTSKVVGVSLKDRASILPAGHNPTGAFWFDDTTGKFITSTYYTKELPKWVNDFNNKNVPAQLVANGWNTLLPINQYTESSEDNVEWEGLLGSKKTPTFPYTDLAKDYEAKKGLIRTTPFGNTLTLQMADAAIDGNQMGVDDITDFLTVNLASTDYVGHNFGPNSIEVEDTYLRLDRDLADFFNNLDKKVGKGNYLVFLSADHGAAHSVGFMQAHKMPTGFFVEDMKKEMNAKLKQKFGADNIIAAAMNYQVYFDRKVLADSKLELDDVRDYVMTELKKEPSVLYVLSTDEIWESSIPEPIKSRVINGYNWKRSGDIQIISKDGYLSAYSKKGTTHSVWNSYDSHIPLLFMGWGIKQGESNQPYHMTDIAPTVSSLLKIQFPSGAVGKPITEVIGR
Variant,phosphate dissociation constant [µM]
N379V,573
N186G,545
K241G,632
D271V,578
I422V,647
L456V,791

# Block 6
# Target: CCNE2, cyclin fold, Cln2 fusion (human)
# Method: yeast growth competition, sequencing
# Sample: yeast
# Notes: strong parent motif
# Baseline: not given
# Direction: higher = stronger binding
# Starting sequence: viral docking peptide; TSVRRALFTGGSD; partner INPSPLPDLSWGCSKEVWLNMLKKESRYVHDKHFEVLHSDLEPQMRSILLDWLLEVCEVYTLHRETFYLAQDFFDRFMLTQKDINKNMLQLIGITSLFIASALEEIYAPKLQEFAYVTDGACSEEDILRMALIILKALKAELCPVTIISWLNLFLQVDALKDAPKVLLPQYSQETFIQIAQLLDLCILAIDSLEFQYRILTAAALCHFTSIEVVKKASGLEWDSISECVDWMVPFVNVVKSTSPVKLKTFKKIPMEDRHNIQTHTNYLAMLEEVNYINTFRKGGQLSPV
Variant,normalised enrichment score
TSVRRAWFTGGSD [L7W],0.148
TQVRRALFTGGSD [S2Q],3.33
TSVRRALFTGNSD [G11N],3.99
TSLRRALFTGGSD [V3L],0.217
TSVRDALFTGGSD [R5D],-0.24
TSVRRALFTNGSD [G10N],4.45
TSVRRARFTGGSD [L7R],0.562
TSVRRALFTEGSD [G10E],5.5
TEVRRALFTGGSD [S2E],2.16
TNVRRALFTGGSD [S2N],4.04
TSVRRALFTGCSD [G11C],4.24
TPVRRALFTGGSD [S2P],2.73
TSVRRALFTGGSA [D13A],3.73
TSVRRALFTGYSD [G11Y],3.56
TCVRRALFTGGSD [S2C],3.31
TSNRRALFTGGSD [V3N],0.0365
TSVRYALFTGGSD [R5Y],0.127
TSVRRALFTGGWD [S12W],3.76
TSVRRALFWGGSD [T9W],2.2
TSVRRALFTIGSD [G10I],3.16
TSERRALFTGGSD [V3E],0.222
TSVRRALTTGGSD [F8T],0.0612
TSVRRALFTGGDD [S12D],4.68
TSVRTALFTGGSD [R5T],-0.162
TSVLRALFTGGSD [R4L],0.722

# Some of these lines once more (block 4):
Sequence,6-mer enrichment (R)
GAUUCA,0.609
UUGACG,0.797
AGAAUC,0.626
ACGAUU,0.577
ACAUCC,0.609
GAUGGU,1.29
GAAAGU,0.85
